Assay results of several laboratories.
Lines come from different studies, so protocols differ.
EGFR L861Q: Epidermal growth factor receptor (EGFR, Homo sapiens, UniProt P00533, L861Q)
EGFR L858R: Epidermal growth factor receptor (EGFR, Homo sapiens, UniProt P00533, L858R)
EGFR T790M: Epidermal growth factor receptor (EGFR, Homo sapiens, UniProt P00533, T790M)
EGFR: Epidermal growth factor receptor (EGFR, Homo sapiens, UniProt P00533)
EGFR del746-750: Epidermal growth factor receptor (EGFR, Homo sapiens, UniProt P00533, del746-750)

Nc1ncc2c(n1)-c1c([nH]c3ccc(C4=CCOCC4)cc13)CCC2  remaining binding (EGFR L861Q; binding, competition with immobilised ligand; 1 µM): 91%
CC(=O)N1c2ccc(-c3ccc(CNC(=O)c4cn5cc(-c6cnc(N)nc6)nc(N6CCOCC6)c5n4)cc3)cc2CC[C@@H]1C  remaining binding (EGFR L858R; KINOMEscan; 10 µM): 95%
C=CC(=O)N1CCc2ccc(-n3c(=O)ccc4cnc5ccc(-c6cnn(C)c6)cc5c43)cc21  remaining binding (EGFR T790M; KINOMEscan; 1 µM; reference: DMSO control): 99%
COc1ccc(NC(=O)Nc2ccc3c(c2)C(=O)N(C(C)CO)CC(C)C(CN(C)Cc2ccc4c(c2)OCO4)O3)cc1 (centres unmarked)  remaining binding (EGFR; binding, competition with immobilised ligand; 10 µM): 66%
Cc1cnc2nc1Nc1cccc(c1)COC/C=C/COCc1cc(ccc1OCCN1CCOCC1)N2  remaining binding (Epidermal growth factor receptor (EGFR, Homo sapiens, UniProt P00533, G719S); binding; 0.1 µM): 95%
CC(C)=CC1OC(C)(C)C2C=C3C(=O)C(Cl)=CC(O)C3C3C(O)C4OC4C(=O)C132 (centres unmarked)  remaining binding (EGFR del746-750; cell-free assay, competition with immobilised ligand; 10 µM): 52%
CNC1C[S+]2CC[S+]3CC[S+](C1)[Ru-4]321([N]=C=S)[n]2c3ccc(OC)cc3c3c4c(c5cc(F)c[n+]1c5c32)C(=O)NC4=O (centres unmarked)  remaining binding (Epidermal growth factor receptor (EGFR, Homo sapiens, UniProt P00533, del747-752/P753S); KinomeScan; 0.1 µM; reference: untreated): 82%
Cc1ccc(-c2c(/C=C(\C#N)C(=O)NC(C)C)n(CCCO)c3ncnc(N)c23)cc1  remaining binding (EGFR L861Q; cell-free assay, competition with immobilised ligand; 1 µM): 100%
CN1CCN(Cc2ccc(NC(=O)c3cccc(C#Cc4cnc(N)c5ncccc45)c3)cc2C(F)(F)F)CC1  remaining binding (EGFR; cell-free assay, competition with immobilised ligand; 50 nM): 43%
C=CC(=O)N1CCCC(n2c(=O)c3ncccc3n(Cc3ccc(Oc4ccccc4)cc3)c2=O)C1 (centres unmarked)  remaining binding (EGFR T790M; cell-free assay, competition with immobilised ligand; 1 µM): 96%
CCN1CCN(Cc2ccc(NC(=O)c3ccc(C)c(NC(=O)c4cncc(-c5cccs5)c4)c3)cc2C(F)(F)F)CC1  remaining binding (Epidermal growth factor receptor (EGFR, Homo sapiens, UniProt P00533, del747-750/T751S); binding, competition with immobilised ligand; 1 µM): 0.15%
CNC(=O)C1CCN(c2cc(C)c(F)cc2NC(=O)c2ccc(-c3cc(O)ccc3C)c(C)c2)CC1  remaining binding (EGFR L858R; binding, competition with immobilised ligand; 1 µM): 31%
CCN1CCN(Cc2ccc(C(=O)Nc3ccc(C)c(NCc4cnc5[nH]ccc5c4OC)c3)cc2C(F)(F)F)CC1  remaining binding (EGFR del746-750; binding, competition with immobilised ligand; 1 µM): 4.4%
COc1c(Cl)cccc1Nc1c(-c2ccncc2C#C[C@@]2(C)CCCN2C(=O)/C=C/CN(C)C)[nH]c2c1C(=O)NCC2  remaining binding (EGFR L858R; cell-free assay, competition with immobilised ligand; 3 µM): 0%
